Published values of several laboratories.
Compare with care: the assays were run in different laboratories. ± marks the error that the study gave.
Mc1r: Melanocyte-stimulating hormone receptor (Mc1r, Mus musculus, UniProt Q01727)
Chain of UniProt Q01727 (whole entry, looked up): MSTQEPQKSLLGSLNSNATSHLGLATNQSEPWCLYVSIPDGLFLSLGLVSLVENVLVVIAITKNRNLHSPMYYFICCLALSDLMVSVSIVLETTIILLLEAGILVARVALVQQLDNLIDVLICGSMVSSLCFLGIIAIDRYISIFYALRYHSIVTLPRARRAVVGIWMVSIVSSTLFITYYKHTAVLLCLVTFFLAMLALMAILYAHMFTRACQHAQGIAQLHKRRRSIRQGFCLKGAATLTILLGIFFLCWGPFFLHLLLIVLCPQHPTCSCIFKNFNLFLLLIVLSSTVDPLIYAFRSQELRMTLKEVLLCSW
Ptger2: Prostaglandin E2 receptor EP2 subtype (Ptger2, Rattus norvegicus, UniProt Q62928)
Chain of UniProt Q62928 (whole entry, looked up): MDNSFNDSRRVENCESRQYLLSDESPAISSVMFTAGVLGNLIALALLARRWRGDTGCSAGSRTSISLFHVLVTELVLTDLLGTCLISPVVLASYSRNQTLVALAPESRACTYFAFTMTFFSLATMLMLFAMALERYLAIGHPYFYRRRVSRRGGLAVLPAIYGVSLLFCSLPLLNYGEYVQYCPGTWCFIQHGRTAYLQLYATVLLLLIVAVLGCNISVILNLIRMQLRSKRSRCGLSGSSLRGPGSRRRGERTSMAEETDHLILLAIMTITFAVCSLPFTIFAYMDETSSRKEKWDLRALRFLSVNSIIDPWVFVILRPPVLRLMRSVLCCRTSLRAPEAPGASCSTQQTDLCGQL
DRD2: D(2) dopamine receptor (DRD2, Homo sapiens, UniProt P14416)
Chain of UniProt P14416 (whole entry, looked up): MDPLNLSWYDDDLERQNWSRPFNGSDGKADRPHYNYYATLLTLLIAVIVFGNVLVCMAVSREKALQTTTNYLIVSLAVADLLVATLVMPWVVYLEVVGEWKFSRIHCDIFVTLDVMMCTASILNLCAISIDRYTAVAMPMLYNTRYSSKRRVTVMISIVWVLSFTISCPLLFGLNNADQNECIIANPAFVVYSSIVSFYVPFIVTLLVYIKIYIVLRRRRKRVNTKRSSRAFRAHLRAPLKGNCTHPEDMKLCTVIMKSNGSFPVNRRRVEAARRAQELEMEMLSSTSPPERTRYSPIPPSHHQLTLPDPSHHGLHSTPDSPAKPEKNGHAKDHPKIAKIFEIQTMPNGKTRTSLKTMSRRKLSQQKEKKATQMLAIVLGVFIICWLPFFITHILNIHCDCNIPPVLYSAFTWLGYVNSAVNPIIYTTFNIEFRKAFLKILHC
Chain of UniProt P23921 (whole entry, looked up): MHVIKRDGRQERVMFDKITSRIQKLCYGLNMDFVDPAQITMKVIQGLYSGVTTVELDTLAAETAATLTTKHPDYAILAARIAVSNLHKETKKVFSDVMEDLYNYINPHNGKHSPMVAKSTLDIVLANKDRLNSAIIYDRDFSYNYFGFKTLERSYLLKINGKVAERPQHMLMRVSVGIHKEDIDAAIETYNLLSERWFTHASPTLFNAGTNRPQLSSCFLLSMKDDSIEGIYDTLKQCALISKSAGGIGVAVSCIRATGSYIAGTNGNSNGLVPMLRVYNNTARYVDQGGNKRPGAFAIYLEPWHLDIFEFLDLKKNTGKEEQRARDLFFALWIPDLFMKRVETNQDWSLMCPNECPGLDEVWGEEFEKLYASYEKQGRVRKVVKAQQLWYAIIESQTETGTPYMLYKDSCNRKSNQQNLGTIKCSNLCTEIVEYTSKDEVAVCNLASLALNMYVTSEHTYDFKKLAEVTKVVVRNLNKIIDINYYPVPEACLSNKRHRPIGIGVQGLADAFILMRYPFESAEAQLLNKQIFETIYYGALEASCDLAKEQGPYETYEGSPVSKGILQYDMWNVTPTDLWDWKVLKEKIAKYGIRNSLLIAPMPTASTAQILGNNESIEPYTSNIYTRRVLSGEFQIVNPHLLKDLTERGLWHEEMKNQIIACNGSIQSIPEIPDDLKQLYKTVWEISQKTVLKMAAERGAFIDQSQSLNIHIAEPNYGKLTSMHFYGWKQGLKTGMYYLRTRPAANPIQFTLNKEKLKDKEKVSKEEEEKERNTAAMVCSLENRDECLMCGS
Chain of UniProt P33033 (whole entry, looked up): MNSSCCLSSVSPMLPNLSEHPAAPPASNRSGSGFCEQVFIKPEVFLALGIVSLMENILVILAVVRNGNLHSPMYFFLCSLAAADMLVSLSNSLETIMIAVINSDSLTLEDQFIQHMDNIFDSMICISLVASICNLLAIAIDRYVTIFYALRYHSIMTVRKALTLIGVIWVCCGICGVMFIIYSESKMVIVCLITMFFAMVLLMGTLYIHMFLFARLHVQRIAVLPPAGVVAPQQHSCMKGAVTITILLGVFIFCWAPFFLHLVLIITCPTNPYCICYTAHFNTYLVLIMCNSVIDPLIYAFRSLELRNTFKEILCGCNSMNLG
Chain of UniProt Q99572 (whole entry, unmodified, looked up): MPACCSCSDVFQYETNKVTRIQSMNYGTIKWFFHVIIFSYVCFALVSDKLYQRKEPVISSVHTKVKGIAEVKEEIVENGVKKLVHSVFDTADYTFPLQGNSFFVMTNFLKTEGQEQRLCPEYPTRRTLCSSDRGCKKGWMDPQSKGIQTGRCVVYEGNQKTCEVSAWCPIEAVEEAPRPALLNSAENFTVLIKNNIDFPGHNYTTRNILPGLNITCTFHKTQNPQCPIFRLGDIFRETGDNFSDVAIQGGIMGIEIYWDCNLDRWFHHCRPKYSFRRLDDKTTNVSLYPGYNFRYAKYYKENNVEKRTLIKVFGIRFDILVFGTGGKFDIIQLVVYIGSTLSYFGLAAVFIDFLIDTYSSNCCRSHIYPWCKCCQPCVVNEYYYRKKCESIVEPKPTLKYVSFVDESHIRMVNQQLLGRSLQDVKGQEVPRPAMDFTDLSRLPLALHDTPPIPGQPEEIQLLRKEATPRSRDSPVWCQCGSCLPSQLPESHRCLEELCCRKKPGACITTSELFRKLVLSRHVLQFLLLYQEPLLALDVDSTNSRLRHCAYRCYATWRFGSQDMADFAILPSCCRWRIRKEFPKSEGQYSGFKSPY
Chain of UniProt Q6B856 (whole entry, looked up): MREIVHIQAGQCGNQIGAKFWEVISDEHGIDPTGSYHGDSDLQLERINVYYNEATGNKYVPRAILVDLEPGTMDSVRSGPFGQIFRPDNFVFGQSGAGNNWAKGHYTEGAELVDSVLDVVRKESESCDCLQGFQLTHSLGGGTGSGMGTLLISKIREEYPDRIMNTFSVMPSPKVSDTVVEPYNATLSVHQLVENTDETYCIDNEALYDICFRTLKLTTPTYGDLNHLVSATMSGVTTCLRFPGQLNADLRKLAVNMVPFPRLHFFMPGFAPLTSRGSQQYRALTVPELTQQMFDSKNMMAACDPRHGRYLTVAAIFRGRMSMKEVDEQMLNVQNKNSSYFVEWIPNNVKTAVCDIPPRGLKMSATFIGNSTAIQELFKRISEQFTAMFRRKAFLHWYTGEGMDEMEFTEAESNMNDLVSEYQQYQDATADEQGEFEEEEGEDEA
Chain of UniProt Q60603 (whole entry, looked up): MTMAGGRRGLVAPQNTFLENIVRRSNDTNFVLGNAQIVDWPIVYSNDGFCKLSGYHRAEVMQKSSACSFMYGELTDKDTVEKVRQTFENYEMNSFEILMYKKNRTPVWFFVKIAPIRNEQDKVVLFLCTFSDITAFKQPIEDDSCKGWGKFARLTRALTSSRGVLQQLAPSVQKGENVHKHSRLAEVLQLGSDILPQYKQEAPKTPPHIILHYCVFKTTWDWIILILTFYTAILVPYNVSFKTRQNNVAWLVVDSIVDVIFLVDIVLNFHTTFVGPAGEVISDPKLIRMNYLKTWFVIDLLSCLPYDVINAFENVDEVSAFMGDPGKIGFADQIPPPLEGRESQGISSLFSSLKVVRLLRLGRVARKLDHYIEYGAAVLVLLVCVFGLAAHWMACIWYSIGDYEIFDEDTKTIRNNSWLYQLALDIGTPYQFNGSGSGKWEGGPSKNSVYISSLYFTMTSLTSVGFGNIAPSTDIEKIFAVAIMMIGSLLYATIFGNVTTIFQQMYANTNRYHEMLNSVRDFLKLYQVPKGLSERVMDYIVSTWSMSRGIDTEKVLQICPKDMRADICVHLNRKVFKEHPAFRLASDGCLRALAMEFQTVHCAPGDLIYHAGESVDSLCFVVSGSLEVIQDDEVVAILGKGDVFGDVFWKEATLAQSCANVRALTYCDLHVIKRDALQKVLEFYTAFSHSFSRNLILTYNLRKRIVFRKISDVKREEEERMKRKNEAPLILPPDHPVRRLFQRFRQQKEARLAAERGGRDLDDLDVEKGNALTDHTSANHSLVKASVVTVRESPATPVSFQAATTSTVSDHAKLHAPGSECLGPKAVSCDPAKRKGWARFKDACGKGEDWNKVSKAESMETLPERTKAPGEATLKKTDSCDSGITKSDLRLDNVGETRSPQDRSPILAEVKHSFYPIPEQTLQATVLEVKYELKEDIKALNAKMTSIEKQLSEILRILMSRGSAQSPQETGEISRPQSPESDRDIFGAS
Chain of UniProt Q96RI1 (whole entry, looked up): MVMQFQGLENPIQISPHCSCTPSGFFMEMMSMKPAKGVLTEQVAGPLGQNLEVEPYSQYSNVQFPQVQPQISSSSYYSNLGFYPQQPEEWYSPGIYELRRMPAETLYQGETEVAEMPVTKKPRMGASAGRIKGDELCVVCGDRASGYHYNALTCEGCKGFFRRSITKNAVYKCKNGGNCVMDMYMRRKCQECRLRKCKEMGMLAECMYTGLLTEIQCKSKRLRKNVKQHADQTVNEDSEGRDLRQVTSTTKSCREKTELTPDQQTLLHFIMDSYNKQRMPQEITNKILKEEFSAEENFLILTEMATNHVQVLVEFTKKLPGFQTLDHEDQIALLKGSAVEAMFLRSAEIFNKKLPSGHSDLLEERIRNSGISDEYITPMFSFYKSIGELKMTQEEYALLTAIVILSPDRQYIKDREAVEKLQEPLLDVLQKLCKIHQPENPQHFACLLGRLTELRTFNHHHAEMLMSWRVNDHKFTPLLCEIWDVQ

The EC50 of `Thio-NADP sodium` is reported as 20000 nM (PGC-1α/ERRα (human); reporter gene, agonist, luciferase reporter).
CSCC[C@H](NC(=O)[C@H](CO)NC(=O)[C@H](Cc1ccc(O)cc1)NC(=O)[C@H](CO)NC(C)=O)C(=O)N[C@@H](CCC(=O)O)C(=O)N[C@@H](C)C(=O)N[C@@H](Cc1ccccc1)C(=O)N[C@@H](CCCNC(=N)N)C(=O)N[C@@H](Cc1c[nH]c2ccccc12)C(=O)NCC(=O)N[C@@H](CCCCN)C(=O)N1CCC[C@H]1C(=O)N[C@H](C(N)=O)C(C)C gave an EC50 of 1070 ± 115 nM (Mc1r).
For BP(=O)(OC[C@H]1O[C@@H](n2cnc3c(N)ncnc32)[C@H](O)[C@@H]1O)OP(=O)(O)OP(=O)(O)OC[C@H]1O[C@@H](n2cnc3c(N)ncnc32)[C@H](O)[C@@H]1O (stereo partly shown), the EC50 was greater than 100000 nM (P2Y purinoceptor 6 (Rattus norvegicus, UniProt Q63371); intracellular calcium rise, agonist; 1321-N1 transfected with rat P2Y6; 37 °C).
The EC50 of CC[C@@H]1NC(=O)[C@H](Cc2ccccc2)NC(=O)[C@H](Cc2ccccc2)NC(=O)[C@H](CCCNC(=N)N)NC(=O)[C@@H]2CCCN2C(=O)[C@H]2CCCN2C(=O)[C@H](Cc2ccccc2)NC(=O)[C@H](C)NC1=O is reported as greater than 100000 nM (Melanocortin receptor 3 (Mus musculus, UniProt P33033)).
CCCCCCCC(=O)OC[C@H](COP(=O)(O)O[C@H]1[C@H](O)[C@@H](O)[C@H](OP(=O)(O)O)[C@@H](O)[C@H]1O)OC(=O)CCCCCCC has an EC50 of roughly 1 mol % (Trpv1 (Rattus norvegicus, UniProt O35433); agonist, inside-out patch clamp; plasma membrane inner leaflet).
With CC(=O)N[C@@H](CO)C(=O)N[C@@H](Cc1ccc(O)cc1)C(=O)N[C@@H](CO)C(=O)N[C@@H](C)C(=O)N[C@@H](CCC(=O)O)C(=O)N[C@@H](Cc1c[nH]cn1)C(=O)N[C@H](Cc1ccccc1)C(=O)N[C@@H](CCCNC(=N)N)C(=O)N[C@@H](Cc1c[nH]c2ccccc12)C(=O)NCC(=O)N[C@@H](CCCCN)C(=O)N1CCC[C@H]1C(=O)N[C@H](C(N)=O)C(C)C the EC50 was 0.11 ± 0.02 nM (Mc1r).
The EC50 of CCCCc1cn2c(n1)c(N)nc1ccccc12 is reported as 7990 nM (TLR8 (Homo sapiens, UniProt Q9NR97); reporter gene, agonist).
The EC50 of CCCCCC(O)C=CC1CCC(=O)N1CCCCCCC(=O)O (stereo not shown) is reported as 2410 nM (Ptger2; reporter gene, agonist).
CCCC[C@H](NC(=O)[C@H](CO)NC(=O)[C@H](Cc1ccc(O)cc1)NC(=O)[C@H](CO)NC(C)=O)C(=O)N[C@@H](CCC(=O)O)C(=O)N[C@@H](Cc1c[nH]cn1)C(=O)N[C@H](Cc1ccccc1)C(=O)N[C@@H](CCCNC(=N)N)C(=O)N[C@@H](C)C(=O)NCC(=O)N[C@@H](CCCCN)C(=O)N1CCC[C@H]1C(=O)N[C@H](C(N)=O)C(C)C has an EC50 of 4.05 ± 0.72 nM (Mc1r).
The Vmax of `UGT1A9 (Homo sapiens, UniProt O60656)` is reported as 0.000668 µmol/min/mg (O=c1ccoc2cc(O)ccc12; steady-state kinetics; pH 7.4, 37 °C).
COc1ccccc1N1CCN(CCCCOc2ccc3sc(C)nc3c2)CC1 gave an EC50 of 68 nM (DRD2; cAMP, agonist, luciferase).
For N=C(NCCCCCCCCCCNC(N)=O)NCCCc1c[nH]cn1, the EC50 was 26900 nM (HRH3 (Homo sapiens, UniProt Q9Y5N1); GTPγS binding, agonist; cell membranes).
With CC(C)c1nc2cc(OCCCCN3CCN(c4cccc5c4OCCO5)CC3)ccc2s1 the EC50 was less than 10 nM (DRD2; cAMP, agonist, luciferase).
With Nc1nc(F)nc2c1ncn2[C@@H]1O[C@H](COP(=O)(O)OP(=O)(O)O)[C@@H](O)[C@@H]1O the EC50 was 5200 ± 1200 nM (Ribonucleoside-diphosphate reductase large subunit (Homo sapiens, UniProt P23921)).
The EC50 of `BzATP` is reported as 20400 nM (P2X purinoceptor 7 (P2RX7, Homo sapiens, UniProt Q99572); calcium influx, agonist, Fura-2; 1321N1 expressing human P2X7).
For CCC1=C(O)c2c(oc(-c3csc4ccc(O)cc34)cc2=O)C(CC)(CC)C1=O, the EC50 was 7500 nM (Tubulin alpha-1B chain/TUBB2B (Bos taurus, UniProt P81947+Q6B856)).
The EC50 of CCCCC[C@H](O)/C=C/[C@H]1CCC(=O)[C@@H]1CCCCCCC(=O)O is reported as 37.2 nM (Ptger2; reporter gene, agonist).
Cc1nc2ccc(OCCCCN3CCC(c4cccc(Cl)c4Cl)CC3)cc2s1 has an EC50 of 88 nM (DRD2; cAMP, agonist, luciferase).
CSCC[C@H](NC(=O)[C@H](CO)NC(=O)[C@H](Cc1ccc(O)cc1)NC(=O)[C@H](CO)NC(C)=O)C(=O)N[C@@H](CCC(=O)O)C(=O)N[C@@H](Cc1c[nH]cn1)C(=O)N[C@@H](Cc1ccccc1)C(=O)N[C@@H](C)C(=O)N[C@@H](Cc1c[nH]c2ccccc12)C(=O)NCC(=O)N[C@@H](CCCCN)C(=O)N1CCC[C@H]1C(=O)N[C@H](C(N)=O)C(C)C gave an EC50 of 6240 ± 3740 nM (Mc1r).
O=c1c(O)c(-c2ccc(O)c(O)c2)oc2cc(O)ccc12 gave an EC50 of 3500 ± 400 nM (Kcnh1 (Mus musculus, UniProt Q60603); V1/2 shift, inside-out patch clamp; Xenopus oocytes).
Cc1nc2cc(OCCCCN3CCCN(c4cccc(Cl)c4Cl)CC3)ccc2s1 gave an EC50 of 1.9 nM (DRD2; cAMP, agonist, luciferase).
With C[C@H](CCC(=O)N[C@@H](Cc1ccc(O)cc1)C(=O)O)[C@H]1CC[C@H]2[C@@H]3[C@H](O)C[C@@H]4C[C@H](O)CC[C@]4(C)[C@H]3CC[C@]12C the EC50 was 2800 nM (Bile acid receptor, ligand-binding domain (NR1H4, Homo sapiens, UniProt Q96RI1); coactivator recruitment, agonist, LanthaScreen TR-FRET; 5.5 h, together with: SRC1 peptide).
Cc1nc2cc(OCCCCN3CCN(c4cccc(Cl)c4Cl)CC3)ccc2s1 gave an EC50 of 15 nM (DRD2; cAMP, agonist, luciferase).
With CCCC[C@H](NC(=O)[C@H](C)NC(=O)[C@H](Cc1ccc(O)cc1)NC(=O)[C@H](CO)NC(C)=O)C(=O)N[C@@H](CCC(=O)O)C(=O)N[C@@H](Cc1c[nH]cn1)C(=O)N[C@H](Cc1ccccc1)C(=O)N[C@@H](CCCNC(=N)N)C(=O)N[C@@H](Cc1c[nH]c2ccccc12)C(=O)NCC(=O)N[C@@H](CCCCN)C(=O)N1CCC[C@H]1C(=O)N[C@H](C(N)=O)C(C)C the EC50 was 0.024 ± 0.004 nM (Mc1r).
The EC50 of CN(C)CCC(=O)Nc1ccc(NC(=O)c2cccc(NC(=O)Nc3cccc(C(=O)Nc4ccc(NC(=O)CCN(C)C)cc4)c3)c2)cc1 is reported as greater than 50000 nM (telomerase; inhibitor, TRAP-LIG; inactive up to solubility limit).

For quick reference, copied from above:
CCCC[C@H](NC(=O)[C@H](CO)NC(=O)[C@H](Cc1ccc(O)cc1)NC(=O)[C@H](CO)NC(C)=O)C(=O)N[C@@H](CCC(=O)O)C(=O)N[C@@H](Cc1c[nH]cn1)C(=O)N[C@H](Cc1ccccc1)C(=O)N[C@@H](CCCNC(=N)N)C(=O)N[C@@H](C)C(=O)NCC(=O)N[C@@H](CCCCN)C(=O)N1CCC[C@H]1C(=O)N[C@H](C(N)=O)C(C)C has an EC50 of 4.05 ± 0.72 nM (Mc1r).
